Measurements of several laboratories.
± marks the error that the study gave.

| Structure (SMILES) | assay | test system | setting | scale | endpoint | value |
| --- | --- | --- | --- | --- | --- | --- |
| CC(C)C[C@H](NC(=O)C[C@H](O)[C@H](CC(C)C)NC(=O)[C@H](Cc1c[nH]cn1)NC(=O)CNC(=O)[C@@H](NC(=O)[C@H](C)NC(=O)[C@H](Cc1c[nH]c2ccccc12)NC(=O)[C@H](CCC(N)=O)NC(=O)[C@@H](Cc1ccccc1)NC(=O)c1ccc(NC(=O)CNC(=O)CCC(C(=O)O)N2CCN(CC(=O)O)CCN(CC(=O)O)CC2)cc1)C(C)C)C(N)=O (stereo partly drawn) [fluorine-18 labelled] | PET imaging | mouse, PC-3 xenograft | intravenous, 1 h, 18F-labelled | – | tumour uptake | 4 ± 0.87 %ID/g |
| N=C(N)NCCC[C@@H]1NC(=O)[C@H](CCCCNC(=O)CC[C@H](NC(=O)CCOCCOCCOCCOCCNC(=O)CN2CCN(CC(=O)O)CCN(CC(=O)O)CCN(CC(=O)O)CC2)C(=O)NCCCC[C@@H]2NC(=O)[C@@H](Cc3ccccc3)NC(=O)[C@H](CC(=O)O)NC(=O)CNC(=O)[C@H](CCCNC(=N)N)NC2=O)NC(=O)[C@@H](Cc2ccccc2)NC(=O)[C@H](CC(=O)O)NC(=O)CNC1=O [indium-111 labelled] | – | female athymic nude mouse, U-87 MG tumour | intravenous, 3 µCi, 0.5 h, U-87 MG glioma xenograft | – | tumour uptake | 6.1 %ID/g |
| N=C(N)NCCC[C@@H]1NC(=O)[C@H](CCCCNC(=O)CNC(=O)CNC(=O)CNC(=O)CC[C@H](NC(=O)c2ccc(NN=Cc3ccccc3S(=O)(=O)O)nc2)C(=O)NCC(=O)NCC(=O)NCC(=O)NCCCC[C@@H]2NC(=O)[C@@H](Cc3ccccc3)NC(=O)[C@H](CC(=O)O)NC(=O)CNC(=O)[C@H](CCCNC(=N)N)NC2=O)NC(=O)[C@@H](Cc2ccccc2)NC(=O)[C@H](CC(=O)O)NC(=O)CNC1=O [technetium-99m labelled] | – | athymic nu/nu mouse, female, U-87 MG glioma xenograft | intravenous, 120 min | baseline: tumour over blood | tumour to tissue ratio | 29 ± 4.68 |
| N=C(N)NCCC[C@@H]1NC(=O)[C@H](CCCCNC(=O)CCOCCOCCOCCOCCNC(=O)CC[C@H](NC(=O)CCOCCOCCOCCOCCNC(=O)CC[C@H](NC(=O)CN2CCN(CC(=O)O)CCN(CC(=O)O)CCN(CC(=O)O)CC2)C(=O)NCCOCCOCCOCCOCCC(=O)N[C@@H](CCC(=O)NCCOCCOCCOCCOCCC(=O)NCCCC[C@@H]2NC(=O)[C@@H](Cc3ccccc3)NC(=O)[C@H](CC(=O)O)NC(=O)CNC(=O)[C@H](CCCNC(=N)N)NC2=O)C(=O)NCCOCCOCCOCCOCCC(=O)NCCCC[C@@H]2NC(=O)[C@@H](Cc3ccccc3)NC(=O)[C@H](CC(=O)O)NC(=O)CNC(=O)[C@H](CCCNC(=N)N)NC2=O)C(=O)NCCOCCOCCOCCOCCC(=O)NCCCC[C@@H]2NC(=O)[C@@H](Cc3ccccc3)NC(=O)[C@H](CC(=O)O)NC(=O)CNC(=O)[C@H](CCCNC(=N)N)NC2=O)NC(=O)[C@@H](Cc2ccccc2)NC(=O)[C@H](CC(=O)O)NC(=O)CNC1=O [indium-111 labelled] | – | female athymic nude mouse, U-87 MG tumour | intravenous, 3 µCi, 0.5 h, U-87 MG glioma xenograft | – | tumour uptake | 10.5 %ID/g |
| N=C(N)NCCC[C@@H]1NC(=O)[C@H](CCCCNC(=O)CNC(=O)CNC(=O)CNC(=O)c2ccc(NN=Cc3ccccc3S(=O)(=O)O)nc2)NC(=O)[C@@H](Cc2ccccc2)NC(=O)[C@H](CC(=O)O)NC(=O)CNC1=O [technetium-99m labelled] | – | athymic nu/nu mouse, female, U-87 MG glioma xenograft | intravenous, 30 min | baseline: tumour over blood | tumour to tissue ratio | 4.42 ± 0.4 |
| N=C(N)NCCC[C@@H]1NC(=O)[C@H](CC(=O)O)NC(=O)[C@@H](Cc2ccccc2)NC(=O)[C@H](CCCCNC(=O)CCOCCOCCOCCOCCNC(=O)CC[C@H](NC(=O)CCOCCOCCOCCOCCNC(=O)CC[C@H](NC(=O)CN2CCN(CC(=O)O)CCN(CC(=O)O)CCN(CC(=O)O)CC2)C(=O)NCCOCCOCCOCCOCCC(=O)N[C@@H](CCC(=O)NCCOCCOCCOCCOCCC(=O)NCCCC[C@@H]2NC(=O)CNC(=O)[C@H](CCCNC(=N)N)NC(=O)[C@H](CC(=O)O)NC(=O)[C@@H](Cc3ccccc3)NC2=O)C(=O)NCCOCCOCCOCCOCCC(=O)NCCCC[C@@H]2NC(=O)CNC(=O)[C@H](CCCNC(=N)N)NC(=O)[C@H](CC(=O)O)NC(=O)[C@@H](Cc3ccccc3)NC2=O)C(=O)NCCOCCOCCOCCOCCC(=O)NCCCC[C@@H]2NC(=O)CNC(=O)[C@H](CCCNC(=N)N)NC(=O)[C@H](CC(=O)O)NC(=O)[C@@H](Cc3ccccc3)NC2=O)NC(=O)CNC1=O [indium-111 labelled] | – | female athymic nude mouse, U-87 MG tumour | intravenous, 3 µCi, 1 h, U-87 MG glioma xenograft | – | tumour uptake | 0.8 %ID/g |
| CC(C)C[C@H](NC(=O)[C@@H]1CCCN1C(=O)[C@H](CCCCN)NC(=O)[C@@H](N)CO)C(=O)N1CCC[C@H]1C(=O)N[C@@H](CCC(=O)O)C(=O)N[C@H](C(=O)N[C@H](C(=O)N[C@@H](CC(=O)O)C(=O)N[C@@H](CCC(=O)O)C(=O)N[C@@H](Cc1ccc(O)cc1)C(=O)N[C@@H](Cc1cn(CCOCCOCCOCCNC(=O)CCc2ccc(O)c(CN(CCN(CC(=O)O)Cc3cc(CCC(=O)NCCCC[C@H](NC(=O)N[C@@H](CCC(=O)O)C(=O)O)C(=O)O)ccc3O)CC(=O)O)c2)nn1)C(=O)O)[C@@H](C)O)C(C)C [gallium-68 labelled] | – | NMRI nu/nu mouse, LNCaP xenograft | 135.34 nmol/kg, low molar activity | baseline: tumour over muscle | tumour to muscle ratio | 23.9 |
| C[C@@H]1NC(=O)[C@H](CCC(=O)O)NC(=O)CNC(=O)[C@H](CC(=O)O)NC(=O)CNC(=O)[C@H](CCCCNC(=O)CCCCCNC(=O)[C@H](CS)NC(=O)CCCCCNC(=O)CN2CCN(CC(=O)O)CCN(CC(=O)O)CCN(CC(=O)O)CC2)NC(=O)[C@@H](Cc2ccc(O)cc2)NC1=O [gallium-68 labelled] | – | mouse, subcutaneous A549 | 10 min | – | tumour to muscle ratio | 2.82 ± 0.76 |
| N=C(N)NCCC[C@@H]1NC(=O)[C@H](CCCCNC(=O)c2ccc(CNC34CNCCNCC(NCc5ccc(C(=O)NCCCC[C@@H]6NC(=O)[C@@H](Cc7ccc(O)cc7)NC(=O)[C@H](CC(=O)O)NC(=O)CNC(=O)[C@H](CCCNC(=N)N)NC6=O)cc5)(CNCCNC3)CNCCNC4)cc2)NC(=O)[C@@H](Cc2ccc(O)cc2)NC(=O)[C@H](CC(=O)O)NC(=O)CNC1=O [copper-64 labelled] | microPET | female athymic nude mouse, U-87 MG xenograft, U-87 MG tumour | intravenous, 4 h | – | tumour uptake | 6.22 ± 1.42 %ID/g |

Repeated from above:
| Structure (SMILES) | assay | test system | setting | scale | endpoint | value |
| --- | --- | --- | --- | --- | --- | --- |
| N=C(N)NCCC[C@@H]1NC(=O)[C@H](CCCCNC(=O)CNC(=O)CNC(=O)CNC(=O)CC[C@H](NC(=O)c2ccc(NN=Cc3ccccc3S(=O)(=O)O)nc2)C(=O)NCC(=O)NCC(=O)NCC(=O)NCCCC[C@@H]2NC(=O)[C@@H](Cc3ccccc3)NC(=O)[C@H](CC(=O)O)NC(=O)CNC(=O)[C@H](CCCNC(=N)N)NC2=O)NC(=O)[C@@H](Cc2ccccc2)NC(=O)[C@H](CC(=O)O)NC(=O)CNC1=O [technetium-99m labelled] | – | athymic nu/nu mouse, female, U-87 MG glioma xenograft | intravenous, 120 min | baseline: tumour over blood | tumour to tissue ratio | 29 ± 4.68 |
